Measured values of several laboratories.
Each line is one published result; not all experiments were run side by side. Numbers after ± are the reported error.
Chain of UniProt Q14160 (whole entry, looked up): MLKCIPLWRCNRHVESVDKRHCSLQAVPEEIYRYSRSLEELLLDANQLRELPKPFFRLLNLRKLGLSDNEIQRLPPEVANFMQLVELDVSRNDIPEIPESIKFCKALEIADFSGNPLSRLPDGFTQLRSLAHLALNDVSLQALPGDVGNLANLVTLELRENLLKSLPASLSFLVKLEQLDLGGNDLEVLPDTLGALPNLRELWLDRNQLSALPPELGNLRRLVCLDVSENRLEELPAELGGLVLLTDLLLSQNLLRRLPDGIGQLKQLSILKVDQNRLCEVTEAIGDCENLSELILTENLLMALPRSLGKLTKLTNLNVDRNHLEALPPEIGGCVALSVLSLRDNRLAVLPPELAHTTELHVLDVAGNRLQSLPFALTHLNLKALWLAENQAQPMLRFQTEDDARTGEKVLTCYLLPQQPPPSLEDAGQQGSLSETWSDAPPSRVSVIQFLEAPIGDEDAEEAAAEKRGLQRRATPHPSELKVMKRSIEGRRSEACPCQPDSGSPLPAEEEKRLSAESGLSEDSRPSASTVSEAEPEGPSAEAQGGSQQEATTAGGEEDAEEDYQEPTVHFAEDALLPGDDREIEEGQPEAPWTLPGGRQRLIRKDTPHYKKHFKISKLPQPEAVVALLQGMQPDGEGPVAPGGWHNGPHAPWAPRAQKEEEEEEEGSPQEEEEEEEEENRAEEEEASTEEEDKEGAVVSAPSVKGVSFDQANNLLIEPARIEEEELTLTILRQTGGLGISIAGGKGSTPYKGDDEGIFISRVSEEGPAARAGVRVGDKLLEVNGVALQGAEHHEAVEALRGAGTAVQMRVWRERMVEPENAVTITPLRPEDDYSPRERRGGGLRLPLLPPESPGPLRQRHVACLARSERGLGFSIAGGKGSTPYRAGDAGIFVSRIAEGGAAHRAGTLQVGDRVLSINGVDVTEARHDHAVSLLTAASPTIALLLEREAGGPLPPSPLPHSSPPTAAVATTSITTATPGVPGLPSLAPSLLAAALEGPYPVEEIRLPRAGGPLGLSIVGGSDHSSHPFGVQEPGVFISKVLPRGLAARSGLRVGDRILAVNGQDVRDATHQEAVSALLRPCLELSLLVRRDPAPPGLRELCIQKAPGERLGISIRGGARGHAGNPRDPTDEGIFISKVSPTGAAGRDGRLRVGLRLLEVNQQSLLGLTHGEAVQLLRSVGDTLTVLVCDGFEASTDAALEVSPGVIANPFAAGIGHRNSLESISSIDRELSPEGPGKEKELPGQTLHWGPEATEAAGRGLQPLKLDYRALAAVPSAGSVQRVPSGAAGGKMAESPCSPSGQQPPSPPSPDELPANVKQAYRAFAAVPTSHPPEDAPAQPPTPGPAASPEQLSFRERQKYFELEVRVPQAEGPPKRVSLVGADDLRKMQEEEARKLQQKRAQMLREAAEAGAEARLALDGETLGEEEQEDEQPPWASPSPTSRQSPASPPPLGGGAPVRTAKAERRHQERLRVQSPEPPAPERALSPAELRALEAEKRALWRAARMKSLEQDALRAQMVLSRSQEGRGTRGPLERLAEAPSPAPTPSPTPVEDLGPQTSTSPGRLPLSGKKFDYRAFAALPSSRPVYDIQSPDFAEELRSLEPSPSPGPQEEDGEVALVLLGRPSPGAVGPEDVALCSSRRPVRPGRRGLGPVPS

CCc1ccc(CC/C=C/c2ccc3c(c2)C(=O)CC3)cc1  Globulin (Sprague-Dawley rat, male; oral, 30 mg/kg/day, 14 days): 21.1 g/L
CC(C)C[C@H](NC(=O)[C@@H](NC(=O)[C@@H](NC(=O)[C@H](CO)NC(=O)[C@@H]1CCCN1C(=O)[C@H](CC(C)C)NC(=O)[C@H](CCCCN)NC(=O)[C@H](CCCNC(=N)N)NC(=O)[C@@H](NC(=O)[C@@H](N)CCCNC(=N)N)C(C)C)[C@@H](C)O)[C@@H](C)O)C(=O)O  Kd (Protein scribble homolog, PDZ3 domain (SCRIB, Homo sapiens, UniProt Q14160); binding, fluorescence polarization; solution; Scribble PDZ3 domain): 27 µM
COc1ccc(CCC2CCCC(CCc3ccc(OC)cc3)N2C[C@@H](O)CO)cc1.Cl (stereo in doubt)  APD90 change (rabbit Purkinje fibres; 0.1 µM, cycle length 0.5 s; baseline: baseline): 19.4 ± 1.8%
COS(C)(=O)=O  PCE to total erythrocytes ratio (male Hsd:ICR (CD-1) mouse, bone marrow; oral, 40 mg/kg/day, positive control): 0.508
COc1ccc(C[C@@H]2NC(=O)[C@@H](CC(C)C)NC(=O)[C@H](CCSC)NC(=O)[C@H](CC(C)C)NC(=O)[C@@H](CC(C)C)NC(=O)[C@H]3CCCN3C2=O)cc1  Papp (LC/MS; horizontal lipid bilayer; 10 µM, 1 h, room temperature, 1% DMSO in PBS): 40 ± 20 ×10⁻⁶ cm/s
COc1cc2c(Oc3ccc4[nH]c(C)cc4c3F)ccnc2cc1OCC1(N)CC1  grade 3 Hyperuricemia (paediatric recurrent refractory sarcoma; 8 mg/kg): 0%
CN1CC[C@@H](c2c(O)cc(O)c3c(=O)cc(-c4ccc(C(F)(F)F)cc4Cl)oc23)[C@@H]1CO  patients with adverse event (refers to: Fatigue; B-cell malignancies; oral, 150 mg, intermittent dosing): 0%
COC[C@@H](CC(C)C)NC(=O)c1ccc(C)c(C)c1  PCE to total erythrocyte ratio (Hsd:ICR (CD-1) mouse, male, bone marrow; oral, 1352 mg/kg, 48 h): 0.528
O=C(C1CCOCC1)N1CC(=O)N2CCc3ccccc3[C@@H]2C1  Cmax of (R)-enantiomer (NMRI mouse, female, S. mansoni-infected, plasma; 200 mg/kg): 97.2 µM
C[C@@H]1NC(=O)[C@H](CCCCNC(=O)CO/N=C/C(=O)NCCCC[C@@H]2NC(=O)[C@@H](Cc3ccccc3)NC(=O)[C@H](CC(=O)O)NC(=O)CNC(=O)[C@H](CCCNC(=N)N)NC2=O)NC(=O)CNC(=O)[C@@H]2CCCN2C(=O)[C@H](CCCCNC(=O)CO/N=C/C(=O)NCCCC[C@@H]2NC(=O)[C@@H](Cc3ccccc3)NC(=O)[C@H](CC(=O)O)NC(=O)CNC(=O)[C@H](CCCNC(=N)N)NC2=O)NC(=O)[C@H](CCCCNC(=O)[C@H](CCCCN)NC(=O)[C@H](Cc2ccccc2)NC(=O)CNC(=O)CN2CCCNCCNCCCNCC2)NC(=O)[C@H](CCCCNC(=O)CO/N=C/C(=O)NCCCC[C@@H]2NC(=O)[C@@H](Cc3ccccc3)NC(=O)[C@H](CC(=O)O)NC(=O)CNC(=O)[C@H](CCCNC(=N)N)NC2=O)NC(=O)CNC(=O)[C@@H]2CCCN2C(=O)[C@H](CCCCNC(=O)CO/N=C/C(=O)NCCCC[C@@H]2NC(=O)[C@@H](Cc3ccccc3)NC(=O)[C@H](CC(=O)O)NC(=O)CNC(=O)[C@H](CCCNC(=N)N)NC2=O)NC1=O [copper-64 labelled]  tissue uptake (normal mice, lung; intravenous, 0.74 MBq, 24 h post-injection): 3.16 ± 0.4 %ID/g
O=C(O)CCC(CP(=O)(O)O)C(=O)O (stereo not drawn)  stability (rat plasma; -80 °C, repeated freeze-thaw cycles): stable
C=CC(=O)N1CC[C@H](n2nc(C#Cc3cc(OC)cc(OC)c3)c3c(N)ncnc32)C1  any adverse drug reaction, any grade (human patients; oral, dose not given, QD regimen, adverse drug reaction, together with: sevelamer hydrochloride): 100%
N=C(CC(O)c1cc2c(F)cc(F)cc2c2cc(C(F)(F)F)ccc12)Nc1ccc(F)c(F)c1 (stereo not drawn)  blood-to-plasma ratio (human blood; 50 ng/mL, 30 min): 1.12 ± 0.05
COc1ncccc1-c1cnn2ccc(N3CCN(C(=O)OC(C)C)CC3)nc12  drug concentration (mouse nerve ligation model, plasma; oral, 3 mg/kg, 30 min after last dose, repeat dosing day 1): 0.74 µM
CCNCCc1c[nH]c2cccc(O)c12.CCNCCc1c[nH]c2cccc(O)c12.O=C(O)CCC(=O)O  distance travelled (C57BL/6J mice; subcutaneous, 3 mg/kg, 30 min session): 2410 ± 95 cm

Excerpt of the above:
C=CC(=O)N1CC[C@H](n2nc(C#Cc3cc(OC)cc(OC)c3)c3c(N)ncnc32)C1  any adverse drug reaction, any grade (human patients; oral, dose not given, QD regimen, adverse drug reaction, together with: sevelamer hydrochloride): 100%
